# Measurements pooled from the literature.
# Each line is one published result; not all experiments were run side by side.
# Organism: Escherichia coli
Compound,test,test system,conditions,MIC
CC[C@H](C)[C@H](NC(=O)[C@@H](CCCNC(=N)N)NC(=O)[C@H](CCCNC(=N)N)NC(=O)[C@H](CC(=O)O)NC(=O)[C@H](Cc1c[nH]c2ccccc12)NC(=O)[C@H](CCCNC(=N)N)NC(=O)[C@@H]1CCCN1C(=O)[C@H](CCCNC(=N)N)NC(=O)[C@@H]1CCCN1C(=O)[C@H](CC(C)C)NC(=O)[C@H](Cc1ccc(O)cc1)NC(=O)[C@@H]1CCCN1C(=O)[C@@H]1CCCN1C(=O)[C@H](CCCCN)NC(=O)[C@H](CC(=O)O)NC(=O)[C@@H](N)C(C)C)C(=O)N[C@@H](Cc1ccc(O)cc1)C(=O)N[C@@H](CC(N)=O)C(=O)N[C@H](CCCNC(=N)N)C(N)=O,broth microdilution,MC4100,"18 h, 37 °C, 25% MHB2",16 µg/mL
Cc1ccnc(-c2cc(C(=O)NCCCCCC(=O)N[C@@H](CCCNC(=N)N)C(=O)N[C@@H](Cc3c[nH]c4ccccc34)C(=O)N[C@@H](CCCNC(=N)N)C(=O)N[C@@H](Cc3c[nH]c4ccccc34)C(=O)N[C@@H](CCCNC(=N)N)C(=O)N[C@@H](Cc3c[nH]c4ccccc34)C(N)=O)ccn2)c1,,"ATCC BAA-196, resistant","18 h, 37 °C, LED light 1.57 mW for 10 min",16 µM
CC(=O)N[C@@H](CC(C)C)C(=O)N[C@H]1CSSC[C@@H](C(=O)N2CCC[C@H]2C(N)=O)NC(=O)[C@H]([C@@H](C)O)NC(=O)[C@H](C(C)C)NC(=O)[C@H]([C@@H](C)O)NC(=O)[C@H](CCCCN)NC(=O)[C@H](CC(C)C)NC(=O)[C@H](Cc2ccccc2)NC(=O)[C@H](Cc2ccc(O)cc2)NC(=O)[C@H](CC(C)C)NC(=O)[C@H](CCCCN)NC(=O)[C@H](Cc2ccccc2)NC(=O)[C@H](CCCNC(=N)N)NC(=O)[C@H](CCC(N)=O)NC(=O)[C@H](CC(C)C)NC(=O)[C@H](CCCCN)NC(=O)[C@@H]2CCCN2C(=O)[C@H](CCCCN)NC(=O)[C@H](C(C)C)NC(=O)[C@H](CC(N)=O)NC(=O)[C@H](Cc2ccc(O)cc2)NC(=O)[C@H]([C@@H](C)O)NC1=O,broth dilution,laboratory strain,24 h,2.5 to 5 µM
CC[C@H](C)[C@H](NC(=O)[C@@H](CCCNC(=N)N)NC(=O)[C@H](CCCNC(=N)N)NC(=O)[C@@H]1CCCN1C(=O)[C@@H]1CCCN1C(=O)[C@H](CCCNC(=N)N)NC(=O)[C@@H]1CCCN1C(=O)[C@H](CCCNC(=N)N)NC(=O)[C@@H]1CCCN1C(=O)[C@H](CC(C)C)NC(=O)[C@H](Cc1ccc(O)cc1)NC(=O)[C@@H]1CCCN1C(=O)[C@H](Cc1ccccc1)NC(=O)[C@H](CCCCN)NC(=O)[C@H](CC(=O)O)NC(=O)[C@@H](N)C(C)C)C(=O)N[C@@H](Cc1ccc(O)cc1)C(=O)N[C@@H](CC(N)=O)C(=O)N[C@H](CCCNC(=N)N)C(N)=O,broth microdilution,BW25113,"18 h, 37 °C, 25% MHB2",16 µg/mL
CC[C@H](C)[C@H](NC(=O)[C@H](CCCCN)NC(=O)[C@@H](NC(=O)[C@@H](NC(=O)[C@H](CC(C)C)NC(=O)[C@H](CCCNC(=N)N)NC(=O)[C@@H](NC(=O)[C@H](CC(C)C)NC(=O)[C@H](CCCNC(=N)N)NC(=O)CNC(=O)[C@H](Cc1ccccc1)NC(=O)[C@@H](N)CCCNC(=N)N)[C@@H](C)CC)[C@@H](C)CC)C(C)C)C(=O)N[C@@H](C)C(=O)N[C@@H](CCCNC(=N)N)C(=O)N[C@@H](CCCNC(=N)N)C(=O)N[C@@H](C)C(=O)N[C@@H](Cc1c[nH]cn1)C(=O)N[C@@H](CCCNC(=N)N)C(=O)N[C@@H](C)C(=O)N[C@@H](CCCNC(=N)N)C(=O)N1CCC[C@H]1C(=O)N[C@@H](C)C(=O)N[C@H](C(=O)N[C@@H](CCCCN)C(=O)N[C@@H](C)C(=O)N[C@@H](C)C(=O)N[C@@H](CO)C(=O)N[C@@H](CC(N)=O)C(=O)N[C@H](C(=O)N[C@@H](C)C(=O)N[C@@H](CCC(=O)O)C(=O)N[C@@H](CC(C)C)C(=O)N[C@@H](C)C(=O)N[C@@H](Cc1c[nH]cn1)C(=O)NCC(=O)N[C@@H](CCC(=O)O)C(N)=O)C(C)C)C(C)C,"bacterial growth, broth microdilution",cation-adjusted Mueller Hinton broth,"18 h, 37 °C",4 µM
CC[C@H](C)[C@H](N)C(=O)NCC(=O)N[C@@H](CC(C)C)C(=O)N[C@H](CCC(=O)O)C(=O)N[C@H](C(=O)N[C@H]1CCCCNC(=O)[C@H](CC(N)=O)NC(=O)[C@@H](CC(=O)O)NC(=O)[C@H](Cc2c[nH]cn2)NC(=O)[C@@H](Cc2ccccc2)NC(=O)[C@H]([C@@H](C)CC)NC(=O)[C@@H](CCCN)NC1=O)[C@@H](C)CC,,ATCC 25922,"18 h, 37 °C, 0.3 mM ZnSO4 LB",> 64 µg/mL
CC[C@H](C)[C@H](NC(=O)[C@H](CCCNC(=N)N)NC(=O)[C@H](CC(=O)O)NC(=O)[C@H](CCCNC(=N)N)NC(=O)[C@H](CC(C)C)NC(=O)[C@H](CC(N)=O)NC(=O)[C@H](CCCNC(=N)N)NC(=O)[C@@H](N)Cc1ccccc1)C(=O)N[C@@H](CCCCN)C(=O)N[C@@H](CC(N)=O)C(=O)N[C@@H](CCCCN)C(=O)N[C@@H](Cc1ccccc1)C(=O)N[C@@H](CCC(=O)O)C(=O)N[C@@H](CC(N)=O)C(=O)N[C@@H](C)C(=O)N[C@@H](CC(C)C)C(=O)N[C@@H](CCCCN)C(=O)N[C@@H](CC(N)=O)C(=O)N[C@H](C(=O)N[C@H](C(=O)N[C@@H](CC(N)=O)C(=O)N[C@@H](CCCCN)C(=O)N[C@@H](CC(C)C)C(=O)N[C@@H](Cc1ccccc1)C(=O)N1CCC[C@H]1C(=O)O)[C@@H](C)CC)C(C)C,broth microdilution,ATCC 25922,,10.4 µM
CC(C)C[C@@H](NC(=O)[C@H](NC(=O)[C@@H](CCCCN)NC(=O)[C@@H](CCCCN)NC(=O)[C@@H](CC(C)C)NC(=O)[C@@H](Cc1c[nH]c2ccccc12)NC(=O)[C@@H](CCCCN)NC(=O)[C@@H](Cc1c[nH]c2ccccc12)NC(=O)[C@@H](CC(C)C)NC(=O)[C@@H](CCCCN)NC(=O)[C@@H](CCCCN)NC(=O)[C@H](N)C(C)C)C(C)C)C(N)=O,,,"24 h, 37 °C, Mueller-Hinton broth, FeCl3 4 µM",16 µM
COc1c(NC(=O)c2ccc(NC(=O)c3ccc(NC(=O)[C@H](CC(N)=O)NC(=O)c4ccc(NC(=O)[C@@H](N)Cc5ccccc5)cc4)cc3)c(OC)c2O)ccc(C(=O)O)c1O,,glutathione S-transferase-like clone,"16 h, 37 °C",16 µg/mL
CC(C)C[C@H](NC(=O)[C@H](CCCCN)NC(=O)[C@H](C)NC(=O)[C@H](CC(C)C)NC(=O)[C@H](CCCCN)NC(=O)[C@H](CCC(N)=O)NC(=O)[C@H](CCCCN)NC(=O)[C@H](CC(C)C)NC(=O)[C@H](CCCCN)NC(=O)[C@H](CCC(N)=O)NC(=O)[C@H](CC(C)C)NC(=O)[C@H](CCCCN)NC(=O)[C@H](C)NC(=O)[C@H](CCCCN)NC(=O)[C@H](CC(C)C)NC(=O)[C@H](CCCCN)NC(=O)[C@H](C)NC(=O)[C@H](CC(C)C)NC(=O)[C@H](CCCCN)NC(=O)[C@H](CCC(N)=O)NC(=O)[C@@H](N)CCCCN)C(N)=O,,K12,24 h,3 µM
CSCC[C@H](NC=O)C(=O)N[C@@H](CCCNC(=N)N)C(=O)N[C@H](C(=O)NCC(=O)N[C@@H](CC(N)=O)C(=O)N[C@@H](C)C(=O)N[C@@H](CC(N)=O)C(=O)O)[C@@H](C)O,broth dilution,K12 MG1655 efflux knock-out,,> 200 µM
CC1(C)C(NC(=O)C(=NOC2(C(=O)O)CCC2)c2csc(N)n2)C(=O)N1OS(=O)(=O)O (stereo not shown),agar dilution,"CDC 1001728, NDM-1",,0.5 µg/mL
CC[C@H](C)[C@H](NC(=O)[C@@H](CCCNC(=N)N)NC(=O)[C@H](CCCNC(=N)N)NC(=O)[C@H](Cc1c[nH]c2ccccc12)NC(=O)[C@H](Cc1c[nH]c2ccccc12)NC(=O)[C@H](CCCNC(=N)N)NC(=O)[C@@H]1CCCN1C(=O)[C@H](CCCNC(=N)N)NC(=O)[C@@H]1CCCN1C(=O)[C@H](CC(C)C)NC(=O)[C@H](Cc1ccc(O)cc1)NC(=O)[C@@H]1CCCN1C(=O)[C@@H]1CCCN1C(=O)[C@H](CCCCN)NC(=O)[C@H](CC(=O)O)NC(=O)[C@@H](N)C(C)C)C(=O)N[C@@H](Cc1ccc(O)cc1)C(=O)N[C@@H](CC(N)=O)C(=O)N[C@H](CCCNC(=N)N)C(N)=O,broth microdilution,ATCC 25922,"18 h, 37 °C, 25% MHB2",8 µg/mL
CC[C@H](C)[C@H](NC(=O)CNC(=O)[C@@H](NC(=O)CNC(=O)[C@@H](NC(=O)CNC(=O)[C@@H](NC(=O)[C@@H](NC(=O)[C@H](CCC(N)=O)NC(=O)[C@H](CCC(=O)O)NC(=O)[C@@H](NC(=O)[C@H](CC(C)C)NC(=O)[C@H](CCCNC(=N)N)NC(=O)[C@H](Cc1ccccc1)NC(=O)[C@@H](NC(=O)[C@H](CC(N)=O)NC(=O)[C@H](CCCCN)NC(=O)CNC(=O)[C@H](CCSC)NC(=O)[C@H](CCCCN)NC(=O)CNC(=O)[C@H](CC(C)C)NC(=O)[C@H](CCCCN)NC(=O)[C@H](CCCCN)NC(=O)CNC(=O)[C@H](Cc1ccccc1)NC(=O)[C@H](CCCCN)NC(=O)[C@H](CCCCN)NC(=O)[C@H](CC(C)C)NC(=O)[C@H](Cc1c[nH]c2ccccc12)NC(=O)CN)C(C)C)C(C)C)C(C)C)C(C)C)C(C)C)C(C)C)C(=O)N[C@@H](CC(N)=O)C(=O)N[C@@H](C)C(=O)N[C@@H](CC(C)C)C(=O)N[C@@H](CO)C(=O)O,broth microdilution,"K88, Mueller-Hinton broth",37 °C,4.39 µg/mL
CC[C@H](C)[C@H](NC(=O)[C@@H](NC(=O)[C@H](CCCCN)NC(=O)[C@H](CCCCN)NC(=O)[C@@H](NC(=O)[C@H](Cc1c[nH]c2ccccc12)NC(=O)[C@H](CCCCN)NC(=O)[C@H](Cc1c[nH]c2ccccc12)NC(=O)[C@H](CC(C)C)NC(=O)[C@H](CCCCN)NC(=O)[C@H](CCCCN)NC(=O)[C@@H](N)C(C)C)[C@@H](C)CC)C(C)C)C(N)=O,,,"24 h, 37 °C, Mueller-Hinton broth, MgCl2 1 mM",32 µM
CC1(C)C(NC(=O)C(=NOCC(=O)N2CC3CCCC3C2C(=O)O)c2csc(N)n2)C(=O)N1OS(=O)(=O)O (stereo not shown),agar dilution,"CDC 1001728, NDM-1",,8 µg/mL
CC[C@H](C)[C@H](NC(=O)[C@@H](CCCNC(=N)N)NC(=O)[C@H](CCCNC(=N)N)NC(=O)[C@H](CCC(N)=O)NC(=O)[C@H](Cc1c[nH]c2ccccc12)NC(=O)[C@H](CCCNC(=N)N)NC(=O)[C@@H]1CCCN1C(=O)[C@H](CCCNC(=N)N)NC(=O)[C@@H]1CCCN1C(=O)[C@H](CC(C)C)NC(=O)[C@H](Cc1ccc(O)cc1)NC(=O)[C@@H]1CCCN1C(=O)[C@@H]1CCCN1C(=O)[C@H](CCCCN)NC(=O)[C@H](CC(=O)O)NC(=O)[C@@H](N)C(C)C)C(=O)N[C@@H](Cc1ccc(O)cc1)C(=O)N[C@@H](CC(N)=O)C(=O)N[C@H](CCCNC(=N)N)C(N)=O,broth microdilution,MC4100,"18 h, 37 °C, 25% MHB2",8 µg/mL
CCCCCCCC(=O)N[C@@H](CCN)C(=O)N[C@H](C(=O)N[C@@H](CCN)C(=O)N[C@H]1CCNC(=O)[C@H]([C@@H](C)O)NC(=O)[C@H](CCN)NC(=O)[C@H](CCN)NC(=O)[C@H](Cc2ccc(C(F)(F)F)cc2)NC(=O)[C@@H](CC(C)C)NC(=O)[C@H](CCN)NC1=O)[C@@H](C)O,broth microdilution,"ATCC 25922, colistin-susceptible",,0.25 to 0.5 µg/mL
N=C(N)NCCC[C@@H]1NC(=O)[C@@H](CCCNC(=N)N)NC(=O)[C@H](CCCNC(=N)N)NC(=O)[C@@H](C(c2ccccc2)c2ccccc2)NC(=O)[C@@H](C(c2ccccc2)c2ccccc2)NC(=O)[C@@H](C(c2ccccc2)c2ccccc2)NC(=O)[C@@H](CCCNC(=N)N)NC1=O,,"ATCC BAA-2452, NDM-1 CRE",,16 µg/mL
